# Published values collected from several papers.
# Numbered parts are unrelated; each lists some results of a single study.

# Study 1 — method: RNA Bind-n-Seq; form: RNA; sample: in vitro; tested at: 100 nM; reference: input RNA pool; reading: higher = stronger binding
# Target: RING finger protein unkempt homolog, zinc fingers 1-6, SBP tag (UNK, Homo sapiens, UniProt Q9C0B0, residues 30-357)
# Chain of UniProt Q9C0B0 (30-357, looked up): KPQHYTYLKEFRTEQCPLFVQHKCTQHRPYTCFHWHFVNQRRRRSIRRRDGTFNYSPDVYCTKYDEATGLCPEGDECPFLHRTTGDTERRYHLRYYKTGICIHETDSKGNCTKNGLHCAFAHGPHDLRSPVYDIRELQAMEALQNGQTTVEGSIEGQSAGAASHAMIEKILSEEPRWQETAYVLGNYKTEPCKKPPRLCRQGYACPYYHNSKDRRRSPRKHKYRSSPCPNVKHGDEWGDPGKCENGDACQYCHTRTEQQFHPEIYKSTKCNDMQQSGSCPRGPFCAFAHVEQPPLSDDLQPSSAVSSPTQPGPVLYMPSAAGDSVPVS
# Setting: RNA with constant flanks, vertebrate orthologous sites, ends assumed
# All sequences stand within: GGGAGUUCUACAGUCCGACGAUC … CAACAGAGGAUUGAGCAUCA
Sequence,bound/input enrichment
CAUGGGGACUACUCUGGGGAGCGCUGGACACUUAGCAUUGUUUGAUUUAUGACCUUGACAAUAGAUAGGCUUGUGGGGUUUUUUGUUUUUUAAUUUAAUGAUAUUAAAACUUAAUUCACU,1.26 ratio
AGGAGAGGGAAAAAGCUGAGCAGAUCUUUCUCCCCCCAAAUAAAGCCAAAAAGAGUUGGCUUUAGUUCUGUCUUUAAAAGCAAAGGUGGCAUUUUCUCUUGAUCGUGUGGCUAUCCUCAC,0.586 ratio
ACGCUUUGAUAUUAAAUUUGACAUAAAAAGCAGCUGAUUGUAAGCACAACUCUUUCCUCCUAGCCAUUUAAAAAGGUAAAAAACAAAAAAGAAAACCUACUAGUCUUGAACAAACUGUCA,0.61 ratio
CUCCUAGCGUCAUACCAGCAUCUUCGCUAUCAGACGUGCACAGCUUACAAAGGAACAGUCUAGUGGUAUUGGUUAUUUUCAUUUCAAAACCUACUUUUUUUUUCCCAAGGCUGAAAAAAA,0.54 ratio
GAUCUGGACCUCGGAGCAGAGCUAUGGAGCUGACUAAAGUAAAGCAGACCUGUAAACUUGUAGCCAUAGGUAGUUGCACAACGACAGUAUCAGCAGAGCAGCUGAGCUAAAGUAUUUAUA,0.372 ratio
CUGUUGUUAAGCACUGUGUUCCAGACUGUGUCUGACUUUAGUGUAACCUAGGAGAUUUUAUAGUUUUAUUUUAAUGAAAUCCUGCUUGAUGCAGAGCAGCGGGGAGAGCAGCGUCCAUGU,3.2 ratio
GUGCAAGGAGAUUAUUCCAACUAGUGAAUUUAUUAACAGUAAAUUGACAGCAAAAGCAAACAGGCAGCUUCAAGAUCCUUUAGUCAUCAUGACAGGAAACAUCCCAACAUGGCUUACUGA,0.853 ratio
GAGAACAGGAAUAUGUCUUUAUUGAGAAUAGUUUGGUGCUGAGGACUAUGUUAGAUUAAAAAAUGAAUUGAUUCCUAUUUGUUGUGUUGCUUUCAUUCAUUGAAAAUCAAAUAAAACUUU,0.474 ratio

# Study 2 — method: universal PBM; form: double-stranded DNA, one strand shown; sample: in vitro; tested at: not given; reading: higher = stronger binding
# Target: Sal-like protein 4, full length isoform B (SALL4, Homo sapiens, UniProt Q9UJQ4-2, residues 1-616)
# Setting: 8-mer, flanks averaged, mean of replicates
Sequence,E-score
AAGTCTCT,-0.0143
AGTGGTGG,-0.0645
ACGAAGAT,0.0854
ACAAGACA,0.145
AATCGGGT,-0.00709
GCTCTGCA,-0.1
GTGACCGA,-0.117
CGACGGTC,-0.273
GCGCCACA,-0.153
AAGAGACG,-0.0239
TCGGGTAA,0.0932
GTAAATGA,0.2
CGACTTAA,0.267
AAGCGTCC,-0.126
GACCGTCA,-0.0583
AGACCTCC,-0.237
CAGGCAGC,-0.301
AATACTCG,0.106
CAAAAATG,0.221
GAGGGGTA,-0.236
AGTGACGG,-0.143
AGTTAGGG,-0.175
AAATCCTG,0.0618
AATAAACA,0.37
TAGACCGA,-0.0301

# Study 3 — method: RNA Bind-n-Seq; form: RNA; sample: in vitro; tested at: 20 nM; setting: 6-mer, flanks averaged, single round; together with: 150 mM LiCl; reference: input library; reading: higher = stronger binding
# Target: TAR DNA-binding protein 43, full length, His tag (TARDBP, Homo sapiens, UniProt Q13148, residues 1-414)
Sequence,6-mer enrichment (R)
UACGUU,0.936
GUGGGA,1.28
UUAUUC,1.03
GAUAAA,0.88
AACAGU,0.86
GUGGGG,1.64
UGACGU,0.946
UAGGGU,1.11
UUCAUA,0.895
UAAGCC,0.896
AAGGGA,0.992
GAAUGG,1.33
UUACUC,0.902
GUCCCU,1.07
CAACCC,0.945
UAAAAU,0.946
GCACAU,0.927

# Study 4 — method: RNA Bind-n-Seq; form: RNA; sample: in vitro; tested at: 365 nM; reference: no-protein control; reading: higher = stronger binding
# Target: RNA binding protein fox-1 homolog 2, RRM domain, GST-SBP tag (RBFOX2, Homo sapiens, UniProt O43251-10, residues 100-194)
# Setting: natural RNA segment, single round, ends assumed
# All sequences stand within: GGGAGUUCUACAGUCCGACGAUC … UGGAAUUCUCGGGUGCCAA
# Residues (chain): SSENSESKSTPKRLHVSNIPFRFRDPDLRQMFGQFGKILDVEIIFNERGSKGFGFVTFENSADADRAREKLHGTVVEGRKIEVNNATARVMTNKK
Sequence,RBNS enrichment (R)
AUAAAAUAAAAUAAAAUAAAACAUCUUGCCCCUAGCUGAGAGAGAGGUCUCUGAAGAGCAGGCUCAGGGAAAAGAUGAGUUUUCAGAGCUGAUGUGAUAGUCAGCUUCUC,0.649
UUAAUUUCCUUUCUGGGCACCUUUUGUCCCCUACUUUUAAAUUAACGGUGAAACGGCCCUAGGAGGGUCGCUCUAGUUGAACUCUCCAGGCAGGACCUUAUGCUCAGAAA,0.297
AAGAAGGCAAGGACUGCCUGAGAGGCUGCGUUGACCCUACUGAUGUGGGUCUUGGGAUGGGCUGGAACAGGGUUCCUGCCUGAGUAGGUGGAACUGGCAACCUUGAAGGG,0.965
UUAAAGAAAAAUCUUCUAAGGGAUUUGGAUUUUACUUUCUUUAGAAUGACAAGUGAAUCAUAUUGACAUUUUACAAUCUUAGAUUUUUCUUUUUUUUUCUUUUGAGACAG,0.632
GAUCCUGUUGUAACUAUCUUCGGAAGGCAGCAGUAUCUUCUGGAACUUCCAUAUUCCAUUCCUUCCUCCUAAGGGACAAUGGAAGUUCUCAGAAGAGUAUCUUCAGUAAG,0.326
CAGCCCGUCUCCUGGCCUCCCAAAGGCUUCUGCCACCUCAGCCACUCUGGAGCUGGAUAGACUGAUGGCCUCACUCUCUGACUUCCGCGUUCAAAACCAUGUUCCAGCCU,0.405
AGCCUGGGUGCCAGGCAGCGGGCAAUAGGCAGGGAUGCCACUGCCUCCAAAAGACUCCUUGCAUUAGGUGAUCCAGGAGCCCUGUCACUAAGCCCCUGCCCCUGAGCUCC,1.5
AUCUUUAACUGUACUUUGCCUGGCGCUGUGCGCAAGGUCUGAAACCUUAUUGCUAGUACCUAGAAACACACAAGGCUAUCCAGCCAAAUCUUAAUGUAAAGUAGCUAGAG,0.346

# Study 5 — method: protein binding microarray; form: double-stranded DNA, one strand shown; sample: in vitro; tested at: not given; reference: not given; reading: higher = stronger binding
# Target: Histone acetyltransferase KAT6A, winged helix 2, GST fusion (KAT6A, Homo sapiens, UniProt Q92794, residues 85-181)
# Setting: 8-mer, flanks averaged, mean of 2 arrays, mostly near background
# Target sequence (chain): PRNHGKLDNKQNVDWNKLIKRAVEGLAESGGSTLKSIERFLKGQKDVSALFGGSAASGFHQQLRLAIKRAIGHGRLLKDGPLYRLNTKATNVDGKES
Sequence,E-score
CCGAATGA,0.186
ACAATAGC,-0.127
AAGGCCAG,0.0907
AGATTGCA,0.00534
ATTGGATG,0.119
CTCTAGGC,-0.039
AGGTATGC,0.00599
ACCTTGTA,-0.081
AGTGGCGA,0.164
CGCCTTGA,0.0606
AGTCAAAG,-0.0785
ACCGGTTG,0.0492
CCAGTCCA,-0.123
ATGGATCG,-0.0457
AATTGGGG,-0.0641
AACATGGC,-0.189
AAAGAAAT,0.243
AAAAACGC,0.175
GGACACTA,0.0229
GTAGTAAC,-0.0704
ACTCAAAC,0.135
CTAGCTCC,-0.114
AGTCTTGA,-0.125
ATGGGCCC,-0.0663
CAGCTGTC,-0.193

# Some of these lines once more (study 5):
Sequence,E-score
ATGGATCG,-0.0457
AATTGGGG,-0.0641
AACATGGC,-0.189
AAAGAAAT,0.243
AAAAACGC,0.175
GGACACTA,0.0229
GTAGTAAC,-0.0704
ACTCAAAC,0.135
CTAGCTCC,-0.114
AGTCTTGA,-0.125
